Measurements pooled from the literature.
A part holds a random share of what one study measured.
UniProt P17106, sequence (whole entry, looked up): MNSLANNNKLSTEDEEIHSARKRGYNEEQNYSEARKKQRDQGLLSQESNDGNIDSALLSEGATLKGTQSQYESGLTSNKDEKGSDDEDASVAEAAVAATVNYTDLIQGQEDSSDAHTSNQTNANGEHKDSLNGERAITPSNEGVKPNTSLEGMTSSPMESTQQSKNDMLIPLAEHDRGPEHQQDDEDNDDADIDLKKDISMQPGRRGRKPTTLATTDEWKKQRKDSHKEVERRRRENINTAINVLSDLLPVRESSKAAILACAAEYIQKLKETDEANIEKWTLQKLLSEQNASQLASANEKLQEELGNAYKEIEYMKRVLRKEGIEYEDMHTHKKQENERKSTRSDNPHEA
UniProt O15530, sequence (whole entry, looked up): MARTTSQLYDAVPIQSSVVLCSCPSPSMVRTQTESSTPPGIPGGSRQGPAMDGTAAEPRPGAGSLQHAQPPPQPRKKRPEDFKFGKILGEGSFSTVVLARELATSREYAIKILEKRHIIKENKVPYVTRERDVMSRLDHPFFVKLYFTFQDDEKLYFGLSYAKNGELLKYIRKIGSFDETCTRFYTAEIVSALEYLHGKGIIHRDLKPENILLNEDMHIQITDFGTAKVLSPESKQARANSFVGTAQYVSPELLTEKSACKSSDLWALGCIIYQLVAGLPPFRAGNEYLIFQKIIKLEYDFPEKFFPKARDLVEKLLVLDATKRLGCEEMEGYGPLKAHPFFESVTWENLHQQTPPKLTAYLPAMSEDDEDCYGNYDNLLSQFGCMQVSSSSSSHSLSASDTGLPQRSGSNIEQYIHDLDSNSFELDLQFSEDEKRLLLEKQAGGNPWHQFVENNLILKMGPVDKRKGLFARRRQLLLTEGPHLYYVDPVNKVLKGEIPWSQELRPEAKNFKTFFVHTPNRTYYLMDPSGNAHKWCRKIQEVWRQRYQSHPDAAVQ
UniProt P54760, sequence (whole entry, looked up): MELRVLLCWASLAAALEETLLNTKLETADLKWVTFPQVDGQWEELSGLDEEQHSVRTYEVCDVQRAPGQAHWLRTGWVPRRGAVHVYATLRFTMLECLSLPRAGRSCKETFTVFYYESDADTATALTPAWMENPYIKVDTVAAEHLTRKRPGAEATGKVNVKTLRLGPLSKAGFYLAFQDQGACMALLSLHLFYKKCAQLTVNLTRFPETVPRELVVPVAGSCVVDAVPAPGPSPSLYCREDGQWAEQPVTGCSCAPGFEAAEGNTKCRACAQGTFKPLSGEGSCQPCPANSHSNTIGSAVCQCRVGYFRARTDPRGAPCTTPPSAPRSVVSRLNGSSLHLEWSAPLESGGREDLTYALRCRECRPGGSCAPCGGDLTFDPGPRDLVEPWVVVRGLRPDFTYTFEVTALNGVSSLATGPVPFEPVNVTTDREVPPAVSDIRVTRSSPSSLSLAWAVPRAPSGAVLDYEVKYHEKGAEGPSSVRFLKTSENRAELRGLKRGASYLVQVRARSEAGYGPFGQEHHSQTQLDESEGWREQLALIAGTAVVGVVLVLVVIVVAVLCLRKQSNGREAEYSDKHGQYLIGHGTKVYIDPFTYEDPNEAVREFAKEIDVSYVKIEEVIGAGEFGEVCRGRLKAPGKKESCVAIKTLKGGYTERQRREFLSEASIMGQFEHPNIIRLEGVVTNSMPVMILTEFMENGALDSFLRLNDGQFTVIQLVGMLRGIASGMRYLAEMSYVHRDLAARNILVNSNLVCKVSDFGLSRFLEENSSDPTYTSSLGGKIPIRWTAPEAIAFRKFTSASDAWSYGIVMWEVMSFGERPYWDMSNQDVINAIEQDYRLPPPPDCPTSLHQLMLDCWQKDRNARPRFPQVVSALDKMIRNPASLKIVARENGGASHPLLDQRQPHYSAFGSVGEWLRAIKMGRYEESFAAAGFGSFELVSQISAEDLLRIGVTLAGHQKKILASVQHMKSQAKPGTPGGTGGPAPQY
UniProt Q9UK32, sequence (whole entry, looked up): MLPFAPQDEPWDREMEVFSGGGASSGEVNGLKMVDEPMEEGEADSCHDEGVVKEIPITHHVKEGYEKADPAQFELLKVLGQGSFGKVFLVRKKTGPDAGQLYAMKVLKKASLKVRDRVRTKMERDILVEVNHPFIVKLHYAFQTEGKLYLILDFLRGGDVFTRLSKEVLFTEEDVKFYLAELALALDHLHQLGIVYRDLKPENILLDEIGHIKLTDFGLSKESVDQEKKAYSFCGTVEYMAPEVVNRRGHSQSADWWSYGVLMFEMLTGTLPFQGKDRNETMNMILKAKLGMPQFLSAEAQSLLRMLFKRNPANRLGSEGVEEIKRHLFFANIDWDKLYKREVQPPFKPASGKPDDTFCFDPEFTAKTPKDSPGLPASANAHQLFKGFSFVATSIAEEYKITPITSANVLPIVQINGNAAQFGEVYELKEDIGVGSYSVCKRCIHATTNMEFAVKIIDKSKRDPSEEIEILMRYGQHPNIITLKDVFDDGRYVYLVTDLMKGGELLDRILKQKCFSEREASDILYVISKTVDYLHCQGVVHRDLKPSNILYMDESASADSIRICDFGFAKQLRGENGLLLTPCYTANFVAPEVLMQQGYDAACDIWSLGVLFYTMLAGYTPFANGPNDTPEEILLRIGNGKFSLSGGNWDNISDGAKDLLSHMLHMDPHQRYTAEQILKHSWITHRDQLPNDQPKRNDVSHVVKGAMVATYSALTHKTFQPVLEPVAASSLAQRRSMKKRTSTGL

Block 1
SMILES: O=C1NC(=O)c2c1c1c3ccccc3n3c1c1c2c2ccccc2n1[C@H]1CC[C@@H]3O1
Observed: enzyme activity
Mode: inhibitor
Tested at: 0.5 µM
Relative to: control
target | remaining activity
RPS6KA6 (Homo sapiens, UniProt Q9UK32) | 1.08%
EPHB4 (Homo sapiens, UniProt P54760) | 75.4%
PDPK1 (Homo sapiens, UniProt O15530) | 10.6%

Block 2
Cell line: HEK-293T-ACE2-TMPRSS2
Method: cell count
Tested at: 10 µM
SMILES | viability [%]
CCS(=O)(=O)c1ncc(Cl)c(C(=O)Nc2ccc(C(=O)OC)cc2)n1 | 71
CCOCC(=O)N1CC(F)(F)C[C@H]1c1nc(C(=O)NC)no1 | 99
Cc1cc2oc(=O)cc(Cn3ncc(Cl)c(Cl)c3=O)c2cc1C(C)C | 73

Mixed results
Substance | tested on | test | test system | conditions | scale | endpoint | value
Cc1ccc(-n2nccn2)c(C(=O)N2CCN(c3nc4cc(Cl)ccc4o3)CC[C@H]2C)c1 | A-375 |  |  | 100 µM, 18 h |  | viability | 17.2%
TGTACGAAGCTATTCCACGTGGTTATAGTAGTTAGGGTCTTGATTCGCTTGACGCTGCTG | Centromere-binding protein 1, full length, N-terminal tag (CBF1, Saccharomyces cerevisiae, UniProt P17106, residues 1-351) | protein-binding microarray | double-stranded DNA, one strand shown, in vitro | 0.8 µM, whole 60-bp probe, no competitor | higher = stronger binding | fluorescence intensity | 4010 a.u.
CCC1=C[C@@H]2CN3CCc4c([nH]c5ccccc45)[C@@](C(=O)OC)(C2)[C@@H]13 | HaCaT |  |  | 100 µM, 60 h |  | viability | 55.8%
CC(C)OC(=O)[C@H](C)N[P@](=O)(CO[C@H](C)Cn1cnc2c(N)ncnc21)Oc1ccccc1 | A-375 |  |  | 100 µM, 18 h |  | viability | 103%
CN1C(=O)CCS(=O)(=O)C1c1ccc(Cl)cc1 (centres unmarked) | A-375 |  |  | 100 µM, 18 h |  | viability | 98.1%

For quick reference, copied from above (mixed results):
Substance | tested on | test | test system | conditions | scale | endpoint | value
TGTACGAAGCTATTCCACGTGGTTATAGTAGTTAGGGTCTTGATTCGCTTGACGCTGCTG | Centromere-binding protein 1, full length, N-terminal tag (CBF1, Saccharomyces cerevisiae, UniProt P17106, residues 1-351) | protein-binding microarray | double-stranded DNA, one strand shown, in vitro | 0.8 µM, whole 60-bp probe, no competitor | higher = stronger binding | fluorescence intensity | 4010 a.u.
CCC1=C[C@@H]2CN3CCc4c([nH]c5ccccc45)[C@@](C(=O)OC)(C2)[C@@H]13 | HaCaT |  |  | 100 µM, 60 h |  | viability | 55.8%
